Measured values of several laboratories.
Lines come from different studies, so protocols differ. ± marks the error that the study gave.
Chain of UniProt Q6P3R8 (whole entry, looked up): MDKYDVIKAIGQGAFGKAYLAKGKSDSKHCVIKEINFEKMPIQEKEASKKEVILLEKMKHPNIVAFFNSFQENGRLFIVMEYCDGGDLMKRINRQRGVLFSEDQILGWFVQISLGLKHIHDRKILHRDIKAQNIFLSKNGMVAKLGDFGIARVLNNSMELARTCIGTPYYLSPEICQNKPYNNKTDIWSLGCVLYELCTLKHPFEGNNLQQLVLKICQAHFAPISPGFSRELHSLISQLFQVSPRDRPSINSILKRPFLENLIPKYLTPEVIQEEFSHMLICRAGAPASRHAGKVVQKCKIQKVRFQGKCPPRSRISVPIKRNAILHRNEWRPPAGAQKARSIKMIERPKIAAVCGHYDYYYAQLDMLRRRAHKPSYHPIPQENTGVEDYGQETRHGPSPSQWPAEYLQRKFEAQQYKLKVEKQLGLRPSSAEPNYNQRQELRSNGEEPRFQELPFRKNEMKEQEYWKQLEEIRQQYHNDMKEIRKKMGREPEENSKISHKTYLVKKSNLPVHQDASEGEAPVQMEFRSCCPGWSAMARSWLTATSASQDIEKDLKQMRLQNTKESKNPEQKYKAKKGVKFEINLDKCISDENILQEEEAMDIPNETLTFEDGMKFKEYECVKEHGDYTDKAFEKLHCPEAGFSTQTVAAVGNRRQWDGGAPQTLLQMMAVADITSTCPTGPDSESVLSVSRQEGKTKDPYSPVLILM
Chain of UniProt Q16566 (whole entry, looked up): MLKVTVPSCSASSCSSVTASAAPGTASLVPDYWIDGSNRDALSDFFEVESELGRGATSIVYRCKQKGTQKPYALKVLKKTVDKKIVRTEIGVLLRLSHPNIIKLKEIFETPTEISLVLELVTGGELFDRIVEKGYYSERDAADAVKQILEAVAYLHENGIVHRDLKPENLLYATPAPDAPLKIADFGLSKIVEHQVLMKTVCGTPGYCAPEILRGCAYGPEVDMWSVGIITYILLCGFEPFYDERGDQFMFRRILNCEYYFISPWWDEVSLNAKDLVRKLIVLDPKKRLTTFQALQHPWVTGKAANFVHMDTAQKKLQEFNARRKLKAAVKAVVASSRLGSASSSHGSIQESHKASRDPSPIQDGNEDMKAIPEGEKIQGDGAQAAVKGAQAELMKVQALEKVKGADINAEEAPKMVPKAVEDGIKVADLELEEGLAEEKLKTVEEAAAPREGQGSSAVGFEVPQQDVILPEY
Chain of UniProt P09936 (whole entry, looked up): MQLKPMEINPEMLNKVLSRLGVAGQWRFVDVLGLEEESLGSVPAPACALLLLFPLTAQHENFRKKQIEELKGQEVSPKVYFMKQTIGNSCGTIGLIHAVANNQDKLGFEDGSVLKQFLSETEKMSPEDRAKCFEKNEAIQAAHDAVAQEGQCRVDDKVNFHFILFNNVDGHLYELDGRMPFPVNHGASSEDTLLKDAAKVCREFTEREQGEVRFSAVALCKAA
Chain of UniProt Q13258 (whole entry, looked up): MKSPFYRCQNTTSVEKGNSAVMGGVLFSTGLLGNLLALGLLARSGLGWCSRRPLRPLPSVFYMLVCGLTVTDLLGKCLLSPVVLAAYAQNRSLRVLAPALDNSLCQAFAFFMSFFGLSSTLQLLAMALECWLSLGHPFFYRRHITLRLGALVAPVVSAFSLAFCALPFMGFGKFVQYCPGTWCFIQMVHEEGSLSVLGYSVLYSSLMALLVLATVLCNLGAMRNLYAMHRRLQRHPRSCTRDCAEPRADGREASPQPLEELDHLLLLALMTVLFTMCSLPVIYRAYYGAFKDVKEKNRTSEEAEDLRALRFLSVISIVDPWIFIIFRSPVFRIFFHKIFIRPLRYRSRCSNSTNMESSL
Chain of UniProt P29320 (whole entry, looked up): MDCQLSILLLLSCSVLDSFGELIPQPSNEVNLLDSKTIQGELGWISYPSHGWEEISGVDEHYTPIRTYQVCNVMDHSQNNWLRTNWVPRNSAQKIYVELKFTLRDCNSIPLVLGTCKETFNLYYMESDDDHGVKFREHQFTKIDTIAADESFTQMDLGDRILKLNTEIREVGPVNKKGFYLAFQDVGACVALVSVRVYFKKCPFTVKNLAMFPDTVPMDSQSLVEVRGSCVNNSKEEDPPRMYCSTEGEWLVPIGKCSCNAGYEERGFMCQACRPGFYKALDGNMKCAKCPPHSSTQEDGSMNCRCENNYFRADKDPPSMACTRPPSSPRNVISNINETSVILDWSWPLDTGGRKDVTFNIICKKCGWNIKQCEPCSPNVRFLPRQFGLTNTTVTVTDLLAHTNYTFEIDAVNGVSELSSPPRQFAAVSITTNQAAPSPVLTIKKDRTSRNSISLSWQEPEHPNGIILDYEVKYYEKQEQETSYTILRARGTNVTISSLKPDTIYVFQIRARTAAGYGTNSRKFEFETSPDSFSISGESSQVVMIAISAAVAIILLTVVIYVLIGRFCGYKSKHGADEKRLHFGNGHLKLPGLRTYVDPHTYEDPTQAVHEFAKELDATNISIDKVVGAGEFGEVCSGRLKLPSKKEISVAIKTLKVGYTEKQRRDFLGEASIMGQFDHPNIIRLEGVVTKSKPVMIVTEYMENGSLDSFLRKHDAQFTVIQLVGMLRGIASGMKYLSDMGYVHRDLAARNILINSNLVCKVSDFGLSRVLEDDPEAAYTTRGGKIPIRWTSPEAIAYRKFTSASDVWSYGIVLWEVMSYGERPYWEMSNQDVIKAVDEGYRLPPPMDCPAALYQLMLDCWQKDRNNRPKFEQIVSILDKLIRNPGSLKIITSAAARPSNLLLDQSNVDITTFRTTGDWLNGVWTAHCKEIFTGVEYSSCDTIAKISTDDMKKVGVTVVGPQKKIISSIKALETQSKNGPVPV
Chain of UniProt Q62351 (whole entry, looked up): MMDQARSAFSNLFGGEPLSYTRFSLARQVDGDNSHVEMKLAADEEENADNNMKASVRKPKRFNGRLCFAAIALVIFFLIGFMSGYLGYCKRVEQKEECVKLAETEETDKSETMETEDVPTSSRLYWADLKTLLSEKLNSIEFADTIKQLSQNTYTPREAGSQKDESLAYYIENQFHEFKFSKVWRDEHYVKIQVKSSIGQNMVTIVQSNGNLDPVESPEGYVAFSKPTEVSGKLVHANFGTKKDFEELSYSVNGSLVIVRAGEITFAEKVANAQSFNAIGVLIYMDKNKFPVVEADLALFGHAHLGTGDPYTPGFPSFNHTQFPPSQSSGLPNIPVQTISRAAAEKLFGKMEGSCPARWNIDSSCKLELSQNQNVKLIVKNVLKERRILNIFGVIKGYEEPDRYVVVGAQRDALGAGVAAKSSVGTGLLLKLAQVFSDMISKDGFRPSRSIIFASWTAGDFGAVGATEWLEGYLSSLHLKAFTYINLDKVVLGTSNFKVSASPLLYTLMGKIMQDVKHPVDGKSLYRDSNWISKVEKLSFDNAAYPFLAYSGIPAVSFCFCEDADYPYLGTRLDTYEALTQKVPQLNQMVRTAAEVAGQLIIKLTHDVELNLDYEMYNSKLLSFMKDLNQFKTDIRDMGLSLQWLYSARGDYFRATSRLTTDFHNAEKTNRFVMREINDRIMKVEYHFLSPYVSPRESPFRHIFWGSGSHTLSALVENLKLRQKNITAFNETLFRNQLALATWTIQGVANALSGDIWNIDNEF
Chain of UniProt Q6PIU2 (whole entry, looked up): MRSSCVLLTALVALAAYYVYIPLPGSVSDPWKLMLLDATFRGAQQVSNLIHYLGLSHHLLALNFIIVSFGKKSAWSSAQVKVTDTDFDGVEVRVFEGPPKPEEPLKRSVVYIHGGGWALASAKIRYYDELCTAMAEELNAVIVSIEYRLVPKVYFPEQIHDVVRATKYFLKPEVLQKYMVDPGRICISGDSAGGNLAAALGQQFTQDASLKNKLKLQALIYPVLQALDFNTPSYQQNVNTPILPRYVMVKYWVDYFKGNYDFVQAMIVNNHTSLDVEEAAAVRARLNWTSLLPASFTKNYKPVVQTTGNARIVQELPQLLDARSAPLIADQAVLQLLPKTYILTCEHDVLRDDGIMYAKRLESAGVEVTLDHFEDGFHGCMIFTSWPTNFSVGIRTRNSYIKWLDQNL
Chain of UniProt Q7Z2W7 (whole entry, looked up): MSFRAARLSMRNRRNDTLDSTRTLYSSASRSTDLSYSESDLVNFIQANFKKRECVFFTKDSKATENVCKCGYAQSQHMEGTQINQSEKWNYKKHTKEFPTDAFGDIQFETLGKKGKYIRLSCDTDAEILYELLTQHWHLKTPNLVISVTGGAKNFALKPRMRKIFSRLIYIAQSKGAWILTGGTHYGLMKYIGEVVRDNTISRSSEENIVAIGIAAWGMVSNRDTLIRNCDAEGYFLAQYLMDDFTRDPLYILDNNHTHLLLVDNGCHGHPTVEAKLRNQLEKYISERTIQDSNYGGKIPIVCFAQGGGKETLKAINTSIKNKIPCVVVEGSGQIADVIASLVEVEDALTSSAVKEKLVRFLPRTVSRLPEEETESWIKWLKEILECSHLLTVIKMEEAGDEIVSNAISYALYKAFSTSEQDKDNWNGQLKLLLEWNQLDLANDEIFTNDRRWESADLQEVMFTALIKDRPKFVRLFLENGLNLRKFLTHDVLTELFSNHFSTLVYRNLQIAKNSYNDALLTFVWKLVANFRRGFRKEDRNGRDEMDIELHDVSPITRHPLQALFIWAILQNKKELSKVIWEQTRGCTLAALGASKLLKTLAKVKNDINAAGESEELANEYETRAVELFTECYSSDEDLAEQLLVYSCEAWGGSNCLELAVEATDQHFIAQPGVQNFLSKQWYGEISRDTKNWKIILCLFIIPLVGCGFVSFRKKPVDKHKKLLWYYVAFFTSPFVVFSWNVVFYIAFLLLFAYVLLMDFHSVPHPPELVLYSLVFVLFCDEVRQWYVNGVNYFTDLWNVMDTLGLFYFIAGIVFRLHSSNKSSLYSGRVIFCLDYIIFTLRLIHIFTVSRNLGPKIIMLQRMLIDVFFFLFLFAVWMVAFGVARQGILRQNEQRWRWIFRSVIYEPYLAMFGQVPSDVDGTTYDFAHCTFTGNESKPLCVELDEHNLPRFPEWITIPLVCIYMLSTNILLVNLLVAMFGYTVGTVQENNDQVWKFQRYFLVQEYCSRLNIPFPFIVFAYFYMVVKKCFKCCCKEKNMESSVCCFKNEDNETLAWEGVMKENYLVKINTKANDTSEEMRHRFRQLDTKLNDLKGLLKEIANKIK

Compound | target | assay | system | conditions | how to read | endpoint | value
CCOC(=O)COc1ccc2c(=O)c3ccccc3oc2c1 | Acetylcholinesterase (ache, Electrophorus electricus, UniProt O42275) | enzyme activity | – | 0.42 µM, together with: substrate 3.45 mM | higher = faster reaction | reaction velocity | 0.0031 a.u.
CC(=O)N[C@H](C(=O)N1C[C@H](O)C[C@H]1C(=O)NCc1ccc(-c2scnc2C)cc1)C(C)(C)SCCCCCCNC(=O)C[C@@H]1N=C(c2ccc(Cl)cc2)c2c(sc(C)c2C)-n2c(C)nnc21 | Bromodomain-containing protein 4, BD2 (BRD4, Homo sapiens, UniProt O60885, A384K/E383V/K378Q) | ITC | – | 25 °C, BD2 mutant, binary | – | −TΔS | 3.35 ± 3.77 kJ/mol
CN1CCN(c2cc(-c3ccncc3)c(-c3ccc4ccccc4c3)nn2)CC1 | Nociceptin receptor (OPRL1, Homo sapiens, UniProt P41146) | agonist, FLIPR | – | 12.5 µM | – | activation | -3.1%
N#C[C@@H]1CC(F)(F)CN1C(=O)CNC(=O)c1ccnc2ccc(OCCCN3CCN(C(=O)CN4CCN(CC(=O)[O-])CCN(CC(=O)[O-])CC4)CC3)cc12.[18F-].[Al+3] | Fibroblast activation protein alpha (Rattus norvegicus, UniProt A0A9K3Y732) | PET | model, rat, HFpEF, HFD/L-NAME | intravenous, 0.05 MBq/g, 30 min, seventh week | – | myocardial SUVmax | 1.98 ± 0.25
Cc1ncsc1-c1ccc([C@H](CC(=O)N2CCN(c3ccc(C#Cc4ccc(C(=O)N5CCC(n6cc(-c7ccc8c(c7)CCN8C(=O)Cc7cccc(OC(F)(F)F)c7)c7c(N)ncnc76)CC5)cc4)cn3)CC2)NC(=O)[C@@H]2C[C@@H](O)CN2C(=O)[C@@H](NC(=O)C2(F)CC2)C(C)(C)C)cc1 | Receptor-interacting serine/threonine-protein kinase 1 (RIPK1, Homo sapiens, UniProt Q13546) | degrader | nude mice, Jurkat xenograft, tumour | intravenous, 10 mg/kg, 24 h, single dose | – | protein reduction | > 70%
COc1ccc2c(c1)/C(=C/c1cnc[nH]1)C(=O)N2 | Transient receptor potential cation channel subfamily M member 8 (TRPM8, Homo sapiens, UniProt Q7Z2W7) | antagonist | HEK293 | 5 µM | relative to: control | remaining activity | 98.7 ± 7.49%
O=C(Nc1cnccc1Cl)N1CCN(Cc2ccc3c(c2)OC(F)(F)O3)CC1 | Calcium/calmodulin-dependent protein kinase type IV (CAMK4, Homo sapiens, UniProt Q16566) | enzyme activity, inhibitor | – | 10 µM, together with: autocamtide-2 | – | inhibition | 3%
COc1cc(Nc2ncc(F)c(Nc3ccc4c(n3)NC(=O)C(C)(C)O4)n2)cc(OC)c1OC | Serine/threonine-protein kinase Nek5 (NEK5, Homo sapiens, UniProt Q6P3R8) | KINOMEscan | – | 10 µM | – | inhibition | 98%
CCn1c(-c2nc3cc(C(=O)N4CCC[C@@H](N)C4)cc(OC)c3n2C)cc2cccnc21 | Protein-arginine deiminase type-2 (PADI2, Homo sapiens, UniProt Q9Y2J8) | – | – | – | relative to: Ki PADI2 over Ki PAD4 | selectivity ratio | 99
COc1ccc(N2C(=O)N(c3c(C)cccc3Cl)Cc3cnc(Nc4ccc(C5CCN(C)CC5)cc4OC)nc32)nc1 | Protein-tyrosine kinase 6 (PTK6, Homo sapiens, UniProt Q13882) | kinase activity, inhibitor | – | 0.5 µM, kinase BRK | – | inhibition | 103%
CC[C@@H](C)[C@@H](NC(=O)[C@@H](Cc1ccc(O)cc1)NC(=O)[C@H]1CCCN1C(=O)[C@@H](CCCNC(=N)N)NC(=O)[C@H](N)Cc1c[nH]cn1)C(=O)N[C@H](C)C(=O)N[C@H](Cc1c[nH]cn1)C(=O)N[C@H](CCCNC(=N)N)C(=O)N[C@H](CCCCNC(=O)c1cccc(S(=O)(=O)F)c1)C(=O)N[C@H](Cc1ccc(O)cc1)C(=O)N[C@H](CO)C(=O)N[C@H](Cc1ccccc1)C(N)=O | Transferrin receptor protein 1 (Tfrc, Mus musculus, UniProt Q62351) | flow cytometry | MC-38 | 6 h, unit not given | relative to: 0 h | surface TFRC expression | 0.724
CN(C(=O)n1cnc(-c2ccc[n+]([O-])c2)c1)C1CCCCC1 | Lysosomal phospholipase A and acyltransferase (Pla2g15, Rattus norvegicus, UniProt Q675A5) | enzyme activity, ABPP | rat, brain | oral, 100 mg/kg/day, 7 days | relative to: vehicle | fold change | -2.4
O=C(Nc1cccnn1)N1CCC(=Cc2cccc(Oc3ccc(C(F)(F)F)cn3)c2)CC1 | Prostaglandin D2 receptor (PTGDR, Homo sapiens, UniProt Q13258) | radioligand binding, inhibitor | – | 10 µM, human, together with: [3H]prostaglandin D2 | – | inhibition | 23%
Cn1ccnc1C(=O)CCl | Ubiquitin carboxyl-terminal hydrolase isozyme L1 (UCHL1, Homo sapiens, UniProt P09936) | covalent, intact protein LC-MS | – | 12.5 µM | – | labelling | 2.47%
C[C@H]1CN(c2n[nH]c3nc(N[C@H]4CC[C@H](NS(=O)(=O)CCC(F)(F)F)CC4)ncc23)CCO1 | Ephrin type-A receptor 3 (EPHA3, Homo sapiens, UniProt P29320) | inhibitor, Kinobeads competition profiling | – | 0.032 µM | relative to: vehicle | relative abundance | 0.99
NNc1ccc(F)cc1 | Secernin-3 (Homo sapiens, UniProt Q0VDG4) | gel-based ABPP | HEK-293T lysate | – | relative to: IC50 AMD1 over Secernin-3 | selectivity ratio | 45 fold
O=C(c1ccc(Cl)cc1)N1CCN2C(=O)N(OC(=O)N3CCOc4ccccc43)C(=O)C2C1 (centres unmarked) | Neutral cholesterol ester hydrolase 1 (NCEH1, Homo sapiens, UniProt Q6PIU2) | MS-based ABPP | SW-620 conditioned medium | 10 µM, 1 h, 37 °C, median protein ratio | relative to: compound over DMSO | probe labelling ratio | 1.34

Excerpt of the above:
Compound | target | assay | system | conditions | how to read | endpoint | value
CC[C@@H](C)[C@@H](NC(=O)[C@@H](Cc1ccc(O)cc1)NC(=O)[C@H]1CCCN1C(=O)[C@@H](CCCNC(=N)N)NC(=O)[C@H](N)Cc1c[nH]cn1)C(=O)N[C@H](C)C(=O)N[C@H](Cc1c[nH]cn1)C(=O)N[C@H](CCCNC(=N)N)C(=O)N[C@H](CCCCNC(=O)c1cccc(S(=O)(=O)F)c1)C(=O)N[C@H](Cc1ccc(O)cc1)C(=O)N[C@H](CO)C(=O)N[C@H](Cc1ccccc1)C(N)=O | Transferrin receptor protein 1 (Tfrc, Mus musculus, UniProt Q62351) | flow cytometry | MC-38 | 6 h, unit not given | relative to: 0 h | surface TFRC expression | 0.724
